Published values of several laboratories.
Each numbered part is a random draw from the data of one study; scales do not carry over between parts.

Set 1 — technique: protein binding microarray; form: double-stranded DNA, one strand shown; medium: in vitro; tested at: not given; relative to: not given; reading: higher = stronger binding; quantity: E-score
Target: Histone acetyltransferase KAT6A, both winged helices, GST fusion (KAT6A, Homo sapiens, UniProt Q92794, residues 1-181)
Setting: 8-mer, flanks averaged, mean of 2 arrays, mostly near background
Residues (chain): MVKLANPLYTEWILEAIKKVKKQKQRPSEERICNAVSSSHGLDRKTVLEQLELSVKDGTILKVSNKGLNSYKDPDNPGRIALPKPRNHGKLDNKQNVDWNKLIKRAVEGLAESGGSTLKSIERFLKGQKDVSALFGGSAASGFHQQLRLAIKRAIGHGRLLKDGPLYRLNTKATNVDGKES
CTTGATCA: -0.00686
AACATCGG: 0.0577
CAAGACTG: -0.207
CAGTGCCG: 0.193
AGCAAGAA: -0.113
GACTACCA: -0.0721
ACCATCAA: -0.137
GCGTCGTA: 0.202
GCATGGGA: -0.0835
GGGAAACC: 0.0889
AAGCCTCA: -0.299
CCCTTGAG: -0.134
AAGTTTGG: -0.0257
AAGCGCGA: 0.235
AACGGAGT: 0.213
GGCAAAAA: 0.0864
TCTTATCA: 0.00515
AGGGACGG: 0.138
AGTTCTAA: -0.0164
GGGCCGAC: 0.136
ACTGTCCC: -0.0605
GCGCTACC: 0.3
CTCCGCTA: 0.194
AACCCCAT: -0.178
ATTTGGAA: -0.167

Set 2 — technique: RNA Bind-n-Seq; form: RNA; medium: in vitro; tested at: not given; relative to: input RNA pool; reading: higher = stronger binding; quantity: bound/input enrichment
Target: RING finger protein unkempt homolog, zinc fingers 1-6, GST-SBP tag (UNK, Homo sapiens, UniProt Q9C0B0, residues 30-357)
Setting: RNA with constant flanks, human and mouse sites, ends assumed
Construct (chain): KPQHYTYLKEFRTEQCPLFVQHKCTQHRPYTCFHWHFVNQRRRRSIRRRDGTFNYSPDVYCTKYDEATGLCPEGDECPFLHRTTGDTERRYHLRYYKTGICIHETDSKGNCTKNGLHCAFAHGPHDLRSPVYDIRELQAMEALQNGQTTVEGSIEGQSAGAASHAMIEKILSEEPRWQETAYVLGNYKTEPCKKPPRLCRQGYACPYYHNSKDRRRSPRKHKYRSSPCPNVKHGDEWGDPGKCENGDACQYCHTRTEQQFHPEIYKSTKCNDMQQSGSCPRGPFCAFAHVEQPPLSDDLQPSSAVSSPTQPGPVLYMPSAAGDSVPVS
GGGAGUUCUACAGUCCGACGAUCGGUCAGGCUAAUAAGCCUGAUGAAACUAGUAAAACUAGUAUUCUGGCUGUAUCAGAUGUAUCUAGCAGUAAACCAAGCAUCAAGGCUGUUAUAGUCUCUUCUCCUAAGGCAAAAGCUACACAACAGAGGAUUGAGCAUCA: 0.299 ratio
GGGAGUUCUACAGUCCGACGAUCGAGAACAGCAAUAUACAGGUCCUUUCUGACAGAUCUGCCACUGAAGUAGACAACAAUUUCAGCAAACCACCUCCAUUUUUCCCUCCAGGGGCUCCUCCUACUCACCUUCCUCCUCCUCCACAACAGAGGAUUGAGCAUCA: 0.273 ratio
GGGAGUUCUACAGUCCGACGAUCAUGAAGAAUGAUAUAACAGUUCCUUCAAAAUUGGCCUAGGAAAUAAAACCUUAAAAGGACACUGGUGUGCUACUUUGUCUUAAUUUGGGCUUUUCUGUUUCAGUUUGCCACCUCCAGCUGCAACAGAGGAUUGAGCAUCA: 0.424 ratio
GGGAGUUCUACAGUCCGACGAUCGAGCAAGACAACGGAGGCACCACAGAGUCUGUGAAAGAACAGGAGAUGAAGUGGACAGACCUGGCCUUACAGGGCCUCCACGAGAACGUCCCACCCGCUGGAAACUGAUGCCGGGCUCCUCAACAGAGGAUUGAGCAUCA: 0.138 ratio
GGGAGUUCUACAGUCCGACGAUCCUCCAAGUUCGAAGCAUUCAGCAAGUGGUGGCAAGGCAGAGCCACCAGAAGAGGGCACCUAGUUUCCAUGACAAAUAUGGGAAUGCUAUAUUAGCAGGUGGAGCCAUCUUCUGUGUUUCUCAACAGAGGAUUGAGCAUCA: 0.229 ratio
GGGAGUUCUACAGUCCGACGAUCCCAUAUGAAAUGUGUAGCAGUGGCUUGGUACAAGCACUUCUUACUGUGUUAAACAAUAGCAUGGAUUUGGAUAUGAAACAAGAUUGUAGUCAACUGGUAGAAAGAAUAAAUGUUUUUAAACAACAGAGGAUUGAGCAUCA: 12.5 ratio
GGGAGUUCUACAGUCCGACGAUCAGAGAACUGGGAAACAUCAUUCAGAAACACGCCCAAGCAAAUGGAUUCUCAGUUGUUCGAAGCUAUUGUGGGCAUGGGAUCCACAAACUUUUCCAUACAGCCCCCAAUGUCCCGCACUAUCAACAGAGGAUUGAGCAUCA: 0.152 ratio
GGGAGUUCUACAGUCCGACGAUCGGACAUGAUUUGAGGGUGGGAACCUCGCAAGUUGUGACCUCUUGUUAACUUGGUCCCCAGAUUAGUAGGCCUUGGCCUUUCCAGCUGCCUUCAGUGCUGCGUGUUUGGUUCUCAGUUGUACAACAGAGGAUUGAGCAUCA: 0.847 ratio
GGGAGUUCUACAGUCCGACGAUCUACCUGCUGCUGCAGACCUACGUACUCCGCCUGGAAGCCAUCAUGAAUGGCAUCUUGCUCUUCUUCUGUGGCUCAGAGCUUUUACUUGAGGUGCUCACCUUGGCUGCUUUCUCCAGUAUGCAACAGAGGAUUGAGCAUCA: 0.247 ratio
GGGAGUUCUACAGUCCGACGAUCGCCUGCGCUCCUAACAAAGAUGUGGCAGACUGCCUGGCCUUGAUCCUUUCCACCAUGAAGCCUUUCCCACCCAAGGACGCCGUCAGUCCUUUCAGCUUCAGCCUGCUCAAGAACUGCGGCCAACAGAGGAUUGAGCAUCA: 0.212 ratio
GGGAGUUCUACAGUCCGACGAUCCAUUUGGACCUUACUCAUCCAGUAGAAGAUGGAAUUUUUGACUCUGGAAAUUUUGAACAGUUUCUACGGGAGAAGGUUAAAGUCAAUGGAAAAACUGGAAAUCUUGGCAAUGUUGUUCACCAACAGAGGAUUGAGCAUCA: 0.0874 ratio

Set 3 — technique: aptamer microarray, sandwich; form: DNA with 2'F-ANA; medium: in vitro; tested at: 200 nM; together with: Cy3 exosite-II aptamer, 400 nM; reading: higher = stronger binding; quantity: mean fluorescence intensity; sequence: GGTTGGTGTGGTTGG
Target: Prothrombin, mature alpha-thrombin (F2, Homo sapiens, UniProt P00734)
Setting: whole 15-mer aptamer, many near background
2'F-ANA at 1 5 6 8 10 11 13 14 15: 57.1 a.u.
2'F-ANA at 1 7 9 11 12 15: 335 a.u.
2'F-ANA at 1 2 5 8 9 11 14 15: 48 a.u.
2'F-ANA at 2 3 4 7: 758 a.u.
2'F-ANA at 3 7 12 13 14: 789 a.u.
2'F-ANA at 2 3 8 9 10 14 15: 297 a.u.
2'F-ANA at 2 3 5 6 7 8 9 10 11: 52.9 a.u.
2'F-ANA at 1 2 3 8 9 10: 89.6 a.u.
2'F-ANA at 1 3 4 5 8 10 11 13 14 15: 48.1 a.u.
2'F-ANA at 1 4 5 7 8 9 12 14: 64.5 a.u.
2'F-ANA at 1 2 3 5 6 11 12 13 15: 71.5 a.u.
2'F-ANA at 1 4 6 7 8 13 15: 94.1 a.u.
2'F-ANA at 1 2 5 8 10 11 12 13: 47.2 a.u.
2'F-ANA at 7 9 10: 207 a.u.
2'F-ANA at 1 2 3 5 6 7 9 11 12 15: 84.6 a.u.
2'F-ANA at 1 2 3 4 6 7 8 9 10 11 13 14: 53.4 a.u.
2'F-ANA at 3 5 6 8 9 13: 88.7 a.u.
2'F-ANA at 5 6 8 9 10 11: 53 a.u.
2'F-ANA at 1 3 6 7 8 9 12 14 15: 139 a.u.
2'F-ANA at 1 2 3 4 6 11 12 15: 221 a.u.

Set 4 — technique: RNA Bind-n-Seq; form: RNA; medium: in vitro; tested at: 365 nM; relative to: no-protein control; reading: higher = stronger binding; quantity: RBNS enrichment (R)
Target: RNA binding protein fox-1 homolog 2, RRM domain, GST-SBP tag (RBFOX2, Homo sapiens, UniProt O43251-10, residues 100-194)
Setting: natural RNA segment, single round, ends assumed
Target sequence (chain): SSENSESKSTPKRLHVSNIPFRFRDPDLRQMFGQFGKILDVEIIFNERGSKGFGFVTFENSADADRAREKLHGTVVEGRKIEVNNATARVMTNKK
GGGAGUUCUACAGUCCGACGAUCUUGUUUGUUUUUCCUGUUUGGGGGUUUUCUUUGGUUUUUUUGUUUGUUUGUUUCUGUUUUUCUGGAUUUAAAAAAAAAGAAAACCUUGCUUUUAGUGUUUGUACUGCUGCUGGAAUUCUCGGGUGCCAA: 14.5
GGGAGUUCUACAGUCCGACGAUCCCUCCUUGCCCAGGCCUCUCUCACUCUUCAUACUCCUCCAGAUUUUGUUCUCAGCAUUUUCCUUUCUCUGUGAUCAUUGGCAUCCUGGGCGUUUCUUGCCCUCUGCUGACUGGAAUUCUCGGGUGCCAA: 1.12
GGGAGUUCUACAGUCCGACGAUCUUUGUGCUAUUUUAUCACAGGCUUACACUACAAUUGUUAAUAAAUACUUCAUUUGGAGAUGUAUGGUGUAAAACACACAAACACACACAAAAAAGCACAAGCCCGCUGCAUGGAAUUCUCGGGUGCCAA: 1.79
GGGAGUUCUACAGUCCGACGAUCAGAUCAAACAGGAAAUUGAAAGCCACUGAACUAUGCAGCAUUUCAGUUUUCAUUUAAACACUUAGUUCAGAAACCUUAAAGGAUUUGAAUAUUUCAAAUUGCACACGUCAUGGAAUUCUCGGGUGCCAA: 1.24
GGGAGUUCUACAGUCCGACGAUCAGGAACUCAGUUAAAAUGCAGUUGAAGAAUGUCAUCUCCCGAAUUGCUGUCACUUUGGCGAGGGAGUGGAUAUAGGGCAUGUCACAAAAGAACAAAAUAACCCGACCUUUUGGAAUUCUCGGGUGCCAA: 1.43
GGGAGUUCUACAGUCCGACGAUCACAUGAGAGACACCGGGAUAGAGAACGGGACCGGCACCAUGAGAAAGGAGUCUGGGUGGAAGCAAAUUGUUUUUAAUGGACUUGCAUCUCCUCACCUUGAUCAGGACUAAUGGAAUUCUCGGGUGCCAA: 0.572
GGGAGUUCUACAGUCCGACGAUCUUGGAGUUCAUGUGAAGGAAUGUCUUUUUAAAUAAUGCUACUCUGAUGCCAUAAUUUUCUAUGGCUCACUAGCUACACUUCCUAGACAUGAGGACUGAUUCCUGUUCACAUGGAAUUCUCGGGUGCCAA: 0.32
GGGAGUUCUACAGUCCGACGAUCUUUGUGUGGAUUGAGGUGUUCAGAAAUACCAACCAUAAAAAUGUAAUCUAGUUGGCAAAGGUGUGCGCUAAAACACGGAACCGAACAUGCAUUGAUUUGGAUAACUUUUGUGGAAUUCUCGGGUGCCAA: 0.434
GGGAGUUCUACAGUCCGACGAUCUUCAUCCUUCCCUAAUGCCGUCUUGGGGCAGGGAUGGAAUAUGACCAGAAAGUUGUGGAUUAAAGGCCUGUGAAUACUGCUGAGCUUGUUGUUUGUAGAAGACCUCACUGUGGAAUUCUCGGGUGCCAA: 0.838
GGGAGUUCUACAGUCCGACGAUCUAACUACAGAUGACUUUUUAAUAUUGUAAAAUAUUUUCUGCUUUUUGACUUGCAUCUGAGAGUUUCUUGUUUCAGUAAAAAAAGAAAAGACAAAAAAAUCAGCUUUGGAAUGGAAUUCUCGGGUGCCAA: 1.17
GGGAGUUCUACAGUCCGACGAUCCUUUCAGCUGUGGCAUCUGUGGCAAAAGCUUCUCCCAACGGUCAGCACUUAUCCCCCACGCCCGCAGCCACGCCCGUGAAAAGCCCUUCAAGUGCCCAGAGUGCGGCAAGUGGAAUUCUCGGGUGCCAA: 0.821
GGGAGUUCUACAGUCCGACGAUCCAUCCAGUGAACUCUGCUCUUCCAAGUGUGUUCAUGUAUGUGCUAGAUAUAUUAGCACAGCCUGCCUUCUGCUGCACAACGCCUUAGAGACCCGGCCUUUCAAUGAGCUUUGGAAUUCUCGGGUGCCAA: 0.545

Set 5 — technique: universal PBM; form: double-stranded DNA, one strand shown; medium: in vitro; tested at: not given; reading: higher = stronger binding; quantity: E-score
Target: Sal-like protein 4, full length isoform B (SALL4, Homo sapiens, UniProt Q9UJQ4-2, residues 1-616)
Setting: 8-mer, flanks averaged, mean of replicates
CCACTGAA: 0.0227
ACGACCTG: -0.138
CGTGGGTC: -0.18
ATATCCTC: 0.174
ACTTTTGA: 0.185
ACTACCCA: 0.0356
GTTTCAAA: 0.152
ATCCAGAC: -0.107
ATGACCAG: 0.00395
CGTTGTCA: -0.0775
GTGACATA: 0.209
ACTCATCC: -0.011
ACAAACAC: 0.0886
CAGTAGGG: -0.176
CCAAATAC: -0.0687
GCCTCAGC: -0.22
ATCAGCAG: -0.0437
CGACCGCA: -0.143
GCCTACCC: -0.211
CACCAATG: -0.134
